Experimental data pooled from the literature.
Protocols differ between the studies behind these lines.
Target: Calcium/calmodulin-dependent protein kinase type 1 (CAMK1, Homo sapiens, UniProt Q14012)

SMILES	test	setting	how to read	quantity	value
COc1c(OCCCN2CCOCC2)ccc2c1N=C(NC(=O)c1cnc(N)nc1)N1CCN=C21	kinase activity, inhibitor	1 µM	baseline: untreated control	remaining activity	122%
COc1ccc(O)cc1-c1c[nH]c2ncc(-c3cncc(C(=O)N(C)C)c3)cc12	binding, competition with immobilised ligand	0.2 µM		inhibition	-7.4%
CC(C)=CC1OC(C)(C)C2C=C3C(=O)C(Cl)=CC(O)C3C3C(O)C4OC4C(=O)C132 (stereo not shown)	cell-free assay, competition with immobilised ligand	10 µM		remaining binding	91%
CN1CCN(Cc2ccc(-c3ccc(CO[C@H]4CCC[C@@H]4NC(=O)c4cc(-c5cnn(C)c5)cnc4N)cc3)cc2)CC1	enzyme activity, inhibitor	0.1 µM		inhibition	-6%
CCn1cc(C(=O)O)c(=O)c2c(N)c(F)c(NC3CCCCC3)cc21	kinase activity	0.1 µM, together with: ATP at Km		inhibition	-22%
C=CC(=O)Nc1cccc(-c2cnc3[nH]cc(C(=O)NC(C)(C)C)c3n2)c1	enzyme activity, inhibitor	0.1 µM		inhibition	4%
Cc1cccc(O[C@H]2CCC[C@@H](C(C)CNCc3ccncc3)C2)c1 (relative stereo)	enzyme activity	1 µM		inhibition	1%
Nc1nc(Nc2ccccc2)sc1C(=O)c1ccccc1	enzyme activity, inhibitor	10 µM		remaining activity	34%
Nc1ncc2c(n1)-c1c([nH]c3ccc(C4=CCOCC4)cc13)CCC2	binding, competition with immobilised ligand	1 µM		remaining binding	88%
COc1c(Cl)cccc1Nc1c(-c2ccncc2C#C[C@@]2(C)CCCN2C(=O)/C=C/CN(C)C)[nH]c2c1C(=O)NCC2	cell-free assay, competition with immobilised ligand	3 µM		remaining binding	95%
CNC(=O)C1CCN(c2cc(C)c(F)cc2NC(=O)c2ccc(-c3cc(O)ccc3C)c(C)c2)CC1	binding, competition with immobilised ligand	1 µM		remaining binding	96%
COc1cc(Nc2nc(C)cc(-c3cnn4nc(OC)ccc34)n2)cc(C(F)(F)F)c1	inhibitor	1 µM	baseline: control	remaining activity	75%
Cc1cccc(-c2ccc3nc(NC(=O)C4CCOCC4)nn3c2)c1	enzyme activity, Dundee kinase panel	10 µM		remaining activity	83%
c1ccc2c(Nc3cc(C4CCC4)[nH]n3)nc(Nc3ccc4nc[nH]c4c3)nc2c1	enzyme activity, inhibitor	0.25 µM		remaining activity	20%
Cc1nc2c(F)cc(-c3nc(Nc4ccc(CNC(=O)CCCCCCC(=O)NO)cc4)ncc3F)cc2n1C(C)C	enzyme activity, inhibitor	1 µM		inhibition	43%
O=C=[N][Ru-4]123([n]4c5ccc(O)cc5c5c6c(c7cc(F)c[n+]1c7c54)C(=O)NC6=O)[S+]1CC[S+]2CC[S+]3CC1 (stereo not shown)	enzyme activity	100 nM, human enzyme, together with: 10 µM ATP	baseline: untreated	remaining activity	108%
Cc1cccc(-c2ccc3nc(NC(=O)C4CCCCC4)nn3c2)c1	enzyme activity, Dundee kinase panel	10 µM		remaining activity	78%
NC(=O)[C@@H](O)C[C@H]1CCc2sc3ncnc(O[C@H]4CC[C@H](N5CCOCC5)CC4)c3c21	enzyme activity, inhibitor	10 µM		inhibition	18%
COc1ccc(NC(=O)Nc2ccc3c(c2)C(=O)N(C(C)CO)CC(C)C(CN(C)Cc2ccc4c(c2)OCO4)O3)cc1 (stereo not shown)	kinase activity, KinaseProfiler	0.03 µM, species human	baseline: control	remaining activity	101%

Repeated from above:
SMILES	test	setting	how to read	quantity	value
CN1CCN(Cc2ccc(-c3ccc(CO[C@H]4CCC[C@@H]4NC(=O)c4cc(-c5cnn(C)c5)cnc4N)cc3)cc2)CC1	enzyme activity, inhibitor	0.1 µM		inhibition	-6%
CCn1cc(C(=O)O)c(=O)c2c(N)c(F)c(NC3CCCCC3)cc21	kinase activity	0.1 µM, together with: ATP at Km		inhibition	-22%
